Results pooled from the literature.
Numbered parts are unrelated; each lists some results of a single study. Substitutions count along the parent as printed.
Sequence of UniProt P08922 (whole entry, looked up): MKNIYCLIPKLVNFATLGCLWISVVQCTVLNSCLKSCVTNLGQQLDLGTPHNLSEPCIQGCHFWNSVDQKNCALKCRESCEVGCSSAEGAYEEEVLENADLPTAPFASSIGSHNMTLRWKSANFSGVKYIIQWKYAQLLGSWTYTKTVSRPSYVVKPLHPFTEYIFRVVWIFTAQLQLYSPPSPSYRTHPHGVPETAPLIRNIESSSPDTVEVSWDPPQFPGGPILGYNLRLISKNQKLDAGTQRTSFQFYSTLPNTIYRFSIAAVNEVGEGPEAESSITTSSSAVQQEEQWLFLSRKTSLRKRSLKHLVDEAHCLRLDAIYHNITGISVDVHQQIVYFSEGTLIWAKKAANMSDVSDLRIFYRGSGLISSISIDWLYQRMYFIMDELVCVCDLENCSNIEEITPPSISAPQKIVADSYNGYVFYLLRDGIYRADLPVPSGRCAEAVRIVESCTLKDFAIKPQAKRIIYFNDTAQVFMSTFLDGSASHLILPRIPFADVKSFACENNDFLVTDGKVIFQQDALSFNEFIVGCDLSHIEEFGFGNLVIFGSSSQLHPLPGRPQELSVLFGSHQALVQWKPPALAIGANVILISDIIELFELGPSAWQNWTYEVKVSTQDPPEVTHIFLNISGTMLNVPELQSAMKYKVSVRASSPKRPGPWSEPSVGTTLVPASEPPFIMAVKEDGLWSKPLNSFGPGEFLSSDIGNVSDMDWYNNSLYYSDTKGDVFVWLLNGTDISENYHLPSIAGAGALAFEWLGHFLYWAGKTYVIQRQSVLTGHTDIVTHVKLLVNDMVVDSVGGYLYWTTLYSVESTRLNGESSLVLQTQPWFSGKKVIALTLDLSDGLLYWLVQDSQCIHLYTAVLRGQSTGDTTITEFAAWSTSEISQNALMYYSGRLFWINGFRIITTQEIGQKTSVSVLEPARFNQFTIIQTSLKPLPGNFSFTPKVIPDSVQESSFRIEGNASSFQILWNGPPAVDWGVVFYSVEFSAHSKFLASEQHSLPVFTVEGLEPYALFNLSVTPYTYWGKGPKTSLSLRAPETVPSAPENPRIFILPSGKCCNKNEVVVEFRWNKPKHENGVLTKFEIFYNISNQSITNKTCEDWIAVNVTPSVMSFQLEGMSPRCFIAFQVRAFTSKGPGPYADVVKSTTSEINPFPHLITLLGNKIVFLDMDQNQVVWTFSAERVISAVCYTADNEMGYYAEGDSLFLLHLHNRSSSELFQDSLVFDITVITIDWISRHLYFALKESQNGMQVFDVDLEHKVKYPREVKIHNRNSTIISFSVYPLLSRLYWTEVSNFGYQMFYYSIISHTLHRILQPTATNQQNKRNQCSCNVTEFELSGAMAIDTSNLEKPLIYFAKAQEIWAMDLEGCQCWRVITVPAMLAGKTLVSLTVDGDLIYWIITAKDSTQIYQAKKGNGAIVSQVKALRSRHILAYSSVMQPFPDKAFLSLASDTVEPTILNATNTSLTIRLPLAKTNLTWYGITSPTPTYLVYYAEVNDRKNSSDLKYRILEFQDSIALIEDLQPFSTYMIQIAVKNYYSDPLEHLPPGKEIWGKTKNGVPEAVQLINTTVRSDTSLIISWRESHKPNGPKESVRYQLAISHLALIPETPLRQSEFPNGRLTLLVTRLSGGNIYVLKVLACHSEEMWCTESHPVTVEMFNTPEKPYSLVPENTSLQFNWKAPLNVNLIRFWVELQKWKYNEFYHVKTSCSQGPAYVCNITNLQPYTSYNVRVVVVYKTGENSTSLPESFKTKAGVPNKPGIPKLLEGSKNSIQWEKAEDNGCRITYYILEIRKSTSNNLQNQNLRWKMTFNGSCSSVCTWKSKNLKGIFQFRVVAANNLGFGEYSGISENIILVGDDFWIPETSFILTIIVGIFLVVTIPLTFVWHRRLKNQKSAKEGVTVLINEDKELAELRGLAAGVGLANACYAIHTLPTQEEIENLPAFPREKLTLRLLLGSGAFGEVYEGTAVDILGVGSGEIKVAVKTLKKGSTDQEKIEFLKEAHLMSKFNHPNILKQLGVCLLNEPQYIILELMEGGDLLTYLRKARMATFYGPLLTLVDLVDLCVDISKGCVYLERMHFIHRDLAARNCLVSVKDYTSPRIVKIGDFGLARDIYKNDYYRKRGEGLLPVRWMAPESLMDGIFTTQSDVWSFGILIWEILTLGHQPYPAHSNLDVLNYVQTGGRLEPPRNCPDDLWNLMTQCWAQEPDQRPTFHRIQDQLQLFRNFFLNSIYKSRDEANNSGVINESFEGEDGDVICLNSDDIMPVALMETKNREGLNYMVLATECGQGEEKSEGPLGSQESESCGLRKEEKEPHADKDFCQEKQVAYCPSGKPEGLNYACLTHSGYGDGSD

Study 1 — target: UBE2D4 UBC core domain (UniProt Q9Y2X8); technique: yeast two-hybrid; medium: yeast; setting: mostly zero background; reference: not given; reading: higher = stronger interaction; endpoint: lacZ reporter activity
B1: RNF115 RING domain (UniProt Q9Y4L5); chain TQEQVDMGLECPVCKEDYTVEEEVRQLPCNHFFHSSCIVPWLELHDTCPVCRKSLNGEDSTR
B2: RNF130 RING domain (UniProt Q86XS8); chain DKETDPDFDHCAVCIESYKQNDVVRILPCKHVFHKSCVDPWLSEHCTCPMCKLNILKALGIV
B3: PJA2 RING domain (UniProt O43164); chain DHTAIGQEQCCPICCSEYIKDDIATELPCHHFFHKPCVSIWLQKSGTCPVCRRHFPPAVIEA
B4: ARIH1 RING domain (UniProt Q9Y4X5); chain NTRSSAQDMPCQICYLNYPNSYFTGLECGHKFCMQCWSEYLTTKIMEEGMGQTISCPAHGCDILVDDNTVM
B5: MDM2 RING domain (UniProt Q00987); chain TQDKEESVESSLPLNAIEPCVICQGRPKNGCIVHGKTGHLMACFTCAKKLKKRNKPCPVCRQPIQMIVLTYFP
B6: RNF17 RING domain (UniProt Q9BXT8); chain SQPWGAAEIQCTRCGRRVSRSSGHHCELQCGHAFCELCLLMTEECTTIICPDCEVATAVNTRQR
B7: TRIM47 RING domain (UniProt Q96LD4); chain MDGSGPFSCPICLEPLREPVTLPCGHNFCLACLGALWPHRGASGAGGPGGAARCPLCQEPFPDGLQLR
Construct (chain): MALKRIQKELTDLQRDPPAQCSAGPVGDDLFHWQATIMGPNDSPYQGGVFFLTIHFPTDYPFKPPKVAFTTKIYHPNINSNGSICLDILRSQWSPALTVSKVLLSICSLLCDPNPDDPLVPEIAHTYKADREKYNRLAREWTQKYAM
B1 (RNF115 RING domain): 4570
B2 (RNF130 RING domain): 14800
B3 (PJA2 RING domain): 2420
B4 (ARIH1 RING domain): 0
MEEMEEELKCPVCGSFYREPIILPCSHNLCQACARNILVQTPESESPQSHRAAGSGVSDY (TRIM9 RING domain (UniProt Q9C026)): 0
B5 (MDM2 RING domain): 0
B6 (RNF17 RING domain): 0
B7 (TRIM47 RING domain): 0

Study 2 — target: CCNE2, cyclin fold, Cln2 fusion (human); technique: yeast growth competition, sequencing; medium: yeast; setting: strong parent motif; reference: not given; reading: higher = stronger binding; endpoint: normalised enrichment score; starting sequence: viral docking peptide; KGVKRKLFAEDSS
KGVKRWLFAEDSS [K6W]: 2.63
KGVKRTLFAEDSS [K6T]: 4.34
KGVKRKLFATDSS [E10T]: 6.1
KGVKYKLFAEDSS [R5Y]: -0.0582
KGVKRKLVAEDSS [F8V]: 0.412
KGVKRKLFACDSS [E10C]: 5.78
KGVKPKLFAEDSS [R5P]: 0.125
KGVKRKLFAWDSS [E10W]: 3.66

Study 3 — read-out: peptide-MHC binding; molecule type: peptide; concentration: concentration not given; endpoint: binding
Target: HLA class I histocompatibility antigen, A alpha chain, allele A*26:03 (Homo sapiens, UniProt P04439)
ETWVETWAF: inactive
VFMDNAFKK: inactive
TVLEFILQK: inactive
GTEEIKSLY: inactive
KVMVICYAY: inactive
RRNRKALWL: inactive
SQMPPQKIM: inactive
GLYRLNFRR: inactive

Other studies, line by line
CC(C)(C)c1cc(C=C(C#N)C#N)cc(Br)c1O — remaining activity (Proto-oncogene tyrosine-protein kinase ROS (ROS1, Homo sapiens, UniProt P08922); enzyme activity, inhibitor; 0.5 µM; reference: control): 93.2%

Some of these lines once more (study 2):
KGVKRKLFACDSS [E10C]: 5.78
KGVKRKLFATDSS [E10T]: 6.1
